Experimental data collected from several papers.
Numbered parts are unrelated; each lists some results of a single study. Positions count from the first letter of the parent shown.

Set 1 — method: RNA Bind-n-Seq; molecule type: RNA; sample: in vitro; concentration: 100 nM; baseline: input RNA pool; reading: higher = stronger binding
Target: RING finger protein unkempt homolog, zinc fingers 1-6, SBP tag (UNK, Homo sapiens, UniProt Q9C0B0, residues 30-357)
UniProt Q9C0B0, sequence (30-357, looked up): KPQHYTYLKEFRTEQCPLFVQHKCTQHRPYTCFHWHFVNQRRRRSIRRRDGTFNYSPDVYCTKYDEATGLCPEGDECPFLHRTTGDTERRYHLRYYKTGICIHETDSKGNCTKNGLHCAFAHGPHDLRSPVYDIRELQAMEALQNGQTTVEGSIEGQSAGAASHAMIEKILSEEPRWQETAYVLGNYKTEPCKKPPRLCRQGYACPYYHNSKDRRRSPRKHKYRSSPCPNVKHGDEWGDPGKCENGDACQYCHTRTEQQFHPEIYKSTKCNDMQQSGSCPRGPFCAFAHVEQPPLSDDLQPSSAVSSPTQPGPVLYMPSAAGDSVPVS
Setting: RNA with constant flanks, vertebrate orthologous sites, ends assumed
| Oligonucleotide | bound/input enrichment [ratio] |
| --- | --- |
| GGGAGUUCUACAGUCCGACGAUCAGUUUGUAUGUACAUUAUUCACAUUCCUCUGUUGUGUUUGGGAAAAAAAAAAAAGACAUUUUAGCCUUUUUUAAGGUUAUUGAUUUAAUUUCAUGUUAUUUGGUUGCAUGAAGUUGCCCUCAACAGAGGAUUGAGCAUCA | 0.42 |
| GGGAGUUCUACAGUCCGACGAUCAGGGACGUUUUGAUGUAAAAAUUGAAGUUAAGAGCUGAUCACAAGCACAAAUCUUUCCCACUAGCCAUUUAAUAAGUUAAAAAAGAUACAAAAACAAACCUACUAGUCUUGAACAAACUGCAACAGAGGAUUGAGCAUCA | 1.53 |
| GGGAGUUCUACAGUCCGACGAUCUCACUCUACUCUUGUUUUGGAAAUGGUACAAAAUACCUAAGGUGAAAUCCUGGCCCCAUUGAGGUCAAUGGGAGUUUUGUCGUAGACUUCAUUAGGGCUGGGAUUUCACCACUAGUCCAUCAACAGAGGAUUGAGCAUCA | 0.37 |
| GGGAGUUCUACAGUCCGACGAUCUGGGUUACUCCUAUUAUUAUCAAGUAGCUGGAAUUGUGAAGGUUGGAGUAGUUAGAUCUUUAGCUUUUACUCCUUAUUUUUUUGUAUUACUAUCCAUGUGUAUAAAUUAUUGAUCAUGUUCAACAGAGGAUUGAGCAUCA | 1.51 |
| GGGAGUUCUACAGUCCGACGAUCUAUUCAUUUGAUUGAAAUCAUUUAGAUAAGAAAUUAUUACUGUUUUCUUUCAAACAGCAUAUCCUAUUUUUCAUCCACUUUGCAAAUACUAGUUUUGUGUGAUUUCUUAACAUCACAAUCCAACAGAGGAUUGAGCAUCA | 0.647 |
| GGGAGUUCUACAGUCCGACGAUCUCUCUCACCUAACUGUGCCCAAAAUUGCUAGGAGGGUUGGAAACGCUCAUUAGUUUCAUGUAGAACUACACUGGCAGGUGCUCAAUUACCGUCAUAGCAAGAUCAAAUACCAUCACAGUACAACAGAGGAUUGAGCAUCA | 0.565 |
| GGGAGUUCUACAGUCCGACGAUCUCCUCAACUUCUUCUAGCUUGUGAUCCUUCAAAGCUGGGUCGGACAUUAGUGCUAGAUACUAGAAAUUUUCAUUUCCCUGUUGCCAGUGAUCAGAGAGACAGACAUUAAAACAGGAAUAUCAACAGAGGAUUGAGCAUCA | 1.2 |
| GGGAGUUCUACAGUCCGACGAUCUAUAAGAACUCUUGCAGUCUUAGAUGUUUUAAAAAUAUAUAUCUGAAUUGUAAGAGUUGUUAGCACAAGUUUUUUUUUUUUUUUUUUUAAGCACUUGUUUUGGGUACAAGGCAUUUCUGACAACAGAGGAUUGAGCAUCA | 0.889 |
| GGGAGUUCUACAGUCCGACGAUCAAGGAGCAGCAUAGGCUGUUUGAGCUUCGGGGAAAUGAGCUUUUGCUUUUUGUAUUUAAAUAGGAUACUUUUAUAUGAUGGGUGCUUUUGAGUGUGAAUGCAGCAGGCUCUCCGUUUCAGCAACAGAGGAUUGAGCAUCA | 0.592 |
| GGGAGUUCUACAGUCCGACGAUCGCACAUGCCGCUGUCACCAAAAUCAGACUGCCAUAUUUCAAAUUUCAUCCAGAAUCGUCGUAGUGUUUCCUAUUCCCUACGCUUCCACUUUUGAUGAUGAAGUAUCCUACGUUCUCCUUCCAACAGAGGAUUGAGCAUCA | 0.731 |
| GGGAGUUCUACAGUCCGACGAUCUUUUUUGUUUUGCACAUGACAGUGUUUGUAACGGAAUUUUCUGAGGAAGAAGGGGUGCUGUAGCAGUGGUGCCGGGGUUCCUGGCCUCCAGCACCCUACCACCUCACCACCCCACCUGGCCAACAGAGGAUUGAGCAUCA | 0.332 |

Set 2 — method: protein binding microarray; molecule type: double-stranded DNA, one strand shown; sample: in vitro; concentration: not given; baseline: not given; reading: higher = stronger binding
Target: Histone acetyltransferase KAT6A, winged helix 2, GST fusion (KAT6A, Homo sapiens, UniProt Q92794, residues 85-181)
Setting: 8-mer, flanks averaged, mean of 2 arrays, mostly near background
Construct (chain): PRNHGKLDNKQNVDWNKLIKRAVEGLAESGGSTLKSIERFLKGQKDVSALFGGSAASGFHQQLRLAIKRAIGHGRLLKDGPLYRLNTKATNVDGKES
| Oligonucleotide | E-score |
| --- | --- |
| AGAAGGAA | 0.0115 |
| AAGGGGGA | -0.0709 |
| ATTCAAGC | 0.143 |
| ACCAATCA | -0.24 |
| GTCAAGGA | -0.0825 |
| CCCCGAAG | 0.109 |
| CGGCAGGA | 0.101 |
| GAGGGTAA | -0.141 |
| AACCAAGG | 0.00978 |
| CTGCCAGC | 0.181 |
| AGTGCGAT | -0.0341 |
| AGTGACAC | 0.0784 |
| ACCCTTAA | 0.0218 |
| CTTGAGGC | 0.033 |
| ACAAGACG | -0.094 |
| ACGACGGC | 0.0323 |
| GAACCCGC | -0.0411 |
| AGGAATGG | -0.0566 |
| CGTGCCGC | 0.0671 |
| ATTACCGC | 0.0532 |
| CCCAGGTC | -0.106 |
| GCCGGGAC | 0.247 |
| AGGAGGGC | -0.0091 |
| AGAGTCAG | -0.105 |
| CACGTGGA | -0.0283 |

Set 3 — target: CEP164, C-terminal peptide (human); method: DHFR complementation, deep sequencing; sample: yeast; baseline: wild type; reading: higher = weaker binding
Setting: single substitutions, model-inferred values
Parent: PDZK1, PDZ domain 2 (human); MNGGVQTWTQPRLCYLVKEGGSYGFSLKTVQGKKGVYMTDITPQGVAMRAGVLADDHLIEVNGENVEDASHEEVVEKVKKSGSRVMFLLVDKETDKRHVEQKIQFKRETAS; partner HNRVKVYRF
| Change | binding free energy change [kcal/mol] |
| --- | --- |
| K18E | 0.487 |
| N65D | 0.248 |
| T94Y | -0.0538 |
| G21P | -0.0671 |
| G4F | 0.0974 |
| K96V | -0.0245 |
| G45S | 0.373 |
| M86R | -0.158 |
| Q101W | -0.121 |
| V17F | 0.331 |
| V30S | 0.0437 |
| N62I | 1.24 |
| D95C | -0.102 |
| M1E | -0.179 |
| D68H | 0.00532 |
| A110Y | -0.0699 |
| T9C | -0.0399 |
| H71W | -0.773 |

Set 4 — target: CCNE2, cyclin fold, Cln2 fusion (human); method: yeast growth competition, sequencing; sample: yeast; setting: weak parent motif; baseline: not given; reading: higher = stronger binding
Parent: RB1 docking peptide (human); PKPLKKLRFDIEG
| Change | normalised enrichment score |
| --- | --- |
| PKDLKKLRFDIEG [P3D] | 0.921 |
| PKYLKKLRFDIEG [P3Y] | 0.329 |
| PKPLKKLRYDIEG [F9Y] | -0.525 |
| AKPLKKLRFDIEG [P1A] | 0.0367 |
| PKPLKKDRFDIEG [L7D] | -0.724 |
| WKPLKKLRFDIEG [P1W] | 1.39 |
| PTPLKKLRFDIEG [K2T] | 0.0539 |
| EKPLKKLRFDIEG [P1E] | 0.499 |
| PKPLKSLRFDIEG [K6S] | 0.467 |
| PKPLKKLNFDIEG [R8N] | -0.414 |
| PKPLKKLRFDIEF [G13F] | 0.531 |
| KKPLKKLRFDIEG [P1K] | 0.181 |
| PKPLKKLRKDIEG [F9K] | 0.441 |
| PKPLKKLRFDIEI [G13I] | 0.276 |
| PYPLKKLRFDIEG [K2Y] | 0.982 |
| PKPLYKLRFDIEG [K5Y] | 0.187 |
| NKPLKKLRFDIEG [P1N] | 0.112 |
| PKPLKKLRFDILG [E12L] | 0.209 |
| PKPLKKLRFDQEG [I11Q] | -0.0413 |
| RKPLKKLRFDIEG [P1R] | 0.767 |
| PKPLKKLRFYIEG [D10Y] | 1.62 |
| PKPLIKLRFDIEG [K5I] | 0.363 |
| PKPLKYLRFDIEG [K6Y] | 0.199 |
| PKPLRKLRFDIEG [K5R] | 0.215 |
| PKCLKKLRFDIEG [P3C] | 1.75 |

Set 5 — target: FOS, bZIP domain (human); method: DHFR protein complementation; sample: yeast; baseline: wild-type JUN-FOS pair; reading: higher = stronger binding
Setting: single substitutions, most at no-binding floor
Parent: JUN, bZIP domain (human); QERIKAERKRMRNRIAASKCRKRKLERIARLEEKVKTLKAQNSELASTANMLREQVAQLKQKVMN; partner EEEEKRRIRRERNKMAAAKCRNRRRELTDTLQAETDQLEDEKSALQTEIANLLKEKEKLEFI
| Change | binding fitness [natural log] |
| --- | --- |
| R53W | -1.11 |
| E32W | -0.48 |
| S43T | 0.0251 |
| E54W | -0.453 |
| R30P | -0.268 |
| N42M | -0.407 |
| E33Q | -0.232 |
| L31D | -0.612 |
| I28W | -0.218 |
| L31H | -0.311 |
| E32D | -0.216 |
| R53P | -1.29 |
| L45D | -1.24 |
| L31M | 0.0857 |
| T37F | -0.179 |
| A46F | -0.305 |
| A40Y | -0.249 |
| K36V | -0.073 |
| R53Q | -0.569 |
| A29L | -0.307 |
| I28A | -0.146 |
| R53C | -1.18 |
| E33M | -0.19 |
| Q55P | -1.03 |

Excerpt of the above (set 4):
| Change | normalised enrichment score |
| --- | --- |
| PKDLKKLRFDIEG [P3D] | 0.921 |
| PTPLKKLRFDIEG [K2T] | 0.0539 |
| PKPLKKLRFYIEG [D10Y] | 1.62 |
| PKPLKKLRFDILG [E12L] | 0.209 |
| PKPLKKLRKDIEG [F9K] | 0.441 |
| PYPLKKLRFDIEG [K2Y] | 0.982 |
| PKPLKKDRFDIEG [L7D] | -0.724 |
